Experimental data collected from several papers.
Each numbered part is a random draw from the data of one study; scales do not carry over between parts. Changes are numbered by the printed parent chain.

Study 1 — read-out: peptide-MHC binding; molecule type: peptide; reading: direction not given
Target: HLA class I histocompatibility antigen, A alpha chain, allele A*80:01 (Homo sapiens, UniProt P04439)
Sequence | z-score of log IC50
GMHDGTVGK | 0.38
CLSDEINHV | 0.38
FLILPQAKK | 0.38
GIALAVPCV | 0.38
FKYDSTKPL | 0.38
FRYKSRCYV | 0.38
FLSFASLFL | 0.38
FLYDRLAST | 0.38

Study 2 — read-out: ligand displacement; concentration: 10 µM
Target: Mu-type opioid receptor (OPRM1, Homo sapiens, UniProt P35372)
Chain of UniProt P35372 (whole entry, looked up): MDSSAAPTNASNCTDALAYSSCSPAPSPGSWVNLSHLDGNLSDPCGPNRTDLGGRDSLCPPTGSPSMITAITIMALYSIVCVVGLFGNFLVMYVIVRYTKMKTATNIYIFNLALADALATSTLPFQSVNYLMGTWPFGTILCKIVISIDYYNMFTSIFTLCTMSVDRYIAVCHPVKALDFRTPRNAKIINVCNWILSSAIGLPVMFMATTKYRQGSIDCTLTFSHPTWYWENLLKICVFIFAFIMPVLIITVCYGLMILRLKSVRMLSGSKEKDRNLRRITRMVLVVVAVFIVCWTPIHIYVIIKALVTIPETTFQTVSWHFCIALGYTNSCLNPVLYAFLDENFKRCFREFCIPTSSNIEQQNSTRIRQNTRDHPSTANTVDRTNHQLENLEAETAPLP
Compound | inhibition
O=C(N[C@H]1CCCCC/C=C\C2C[C@@]2(C(=O)O)NC(=O)[C@@H]2C[C@@H](Oc3ccncc3)CN2C1=O)OC1CCCC1 (stereo partly drawn) | -8.64%
CN1CCN(C(=O)C(C)(C)c2ccc(C(=O)Nc3cn4cc(-c5cc(C(C)(C)C)cc(C(C)(C)C)c5)ccc4n3)cc2)CC1 | 55.7%
CN(C)C(=O)c1sc2nc(N3CCC(S(C)(=O)=O)CC3)cc(C(F)(F)F)c2c1N | 22.4%
Nc1cnc(N2CCc3cc(S(=O)(=O)Nc4c(F)cc(Cl)cc4F)cc(N4CCCC4=O)c32)nc1 | -1.31%
CC(=O)N1CCC(c2ccc(C(=O)NC3=NCCN3)cc2C(F)(F)F)CC1 | -2.53%
CCC(=NO)C(C)=Cc1ccc(F)c(C)c1 | -1.52%
NS(=O)(=O)c1cc(NC(=O)Cc2ccccc2)ccc1Oc1cccc(Cl)c1 | 19.3%
O=C(NCCCC1CCCCC1)c1ccc(CNC(=O)c2cnn(-c3ccccc3)c2C(F)(F)F)cc1 | 19.4%
COCCOc1nc(-c2ccc(Cl)nc2)nc2c1CN(C(=O)c1ncn3ccccc13)CC2 | -0.32%
Nc1nc(NCc2ccccc2)nc(-c2cccc(CO)c2)n1 | 43.6%
C[C@H](c1ccnc(Nc2nc3ccc(-c4cc(N(C)C)ncn4)cc3[nH]2)c1)N1CCN(C(=O)CC(F)(F)F)CC1 | 26%
CC1CCN(c2ccnc(NCc3cn(C)cn3)n2)CC1 | 10.8%
Cc1c(NC(=O)c2cc(C(N)=O)nc3cc(F)ccc23)c(C(F)(F)F)nn1Cc1ccc(C#N)cc1 | 6.68%
C[C@@H](c1cccc(C#N)c1)n1cc(Cl)cc(C(N)=O)c1=N | -6.83%
O=c1nc(-c2ccccn2)sc2ccccc12 | 3.52%
O=S(=O)(NC1CCC(c2cc(F)ccc2F)(S(=O)(=O)c2ccc(Cl)cc2)CC1)C(F)(F)F (stereo not drawn) | 20%
CCOc1ccc(S(=O)(=O)Nc2ccc(Cl)cc2C#Cc2cnc(C(=O)O)cc2OC)c2ncccc12 | -10.6%
O=C1NC(c2ccccn2)Sc2ccccc21 (stereo not drawn) | 6.47%

Study 3 — target: CCNF, cyclin fold, Cln2 fusion (human); technique: yeast growth competition, sequencing; medium: yeast; notes: strong parent motif; baseline: not given; reading: higher = stronger binding
Parent: viral docking peptide; YKVKRRLVFGADD; partner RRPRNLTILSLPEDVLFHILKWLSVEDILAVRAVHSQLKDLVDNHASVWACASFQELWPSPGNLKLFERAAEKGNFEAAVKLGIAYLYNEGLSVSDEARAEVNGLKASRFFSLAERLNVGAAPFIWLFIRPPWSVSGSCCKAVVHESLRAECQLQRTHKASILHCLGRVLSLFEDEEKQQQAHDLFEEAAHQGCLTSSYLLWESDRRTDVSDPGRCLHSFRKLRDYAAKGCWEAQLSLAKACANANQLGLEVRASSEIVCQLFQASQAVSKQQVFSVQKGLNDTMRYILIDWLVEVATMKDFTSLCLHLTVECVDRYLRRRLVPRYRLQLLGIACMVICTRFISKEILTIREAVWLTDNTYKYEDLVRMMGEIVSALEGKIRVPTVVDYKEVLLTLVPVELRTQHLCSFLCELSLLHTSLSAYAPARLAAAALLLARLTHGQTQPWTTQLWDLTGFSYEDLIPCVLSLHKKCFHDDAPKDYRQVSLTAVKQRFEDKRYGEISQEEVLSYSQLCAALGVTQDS
Change | normalised enrichment score
YKVKRRLVFGHDD [A11H] | 9.14
YKVKRRLVFGMDD [A11M] | 8.94
YKVKRRLQFGADD [V8Q] | 9.19
YKVKRRWVFGADD [L7W] | 0.976
YKVFRRLVFGADD [K4F] | 7.49
YKVKRRLVSGADD [F9S] | 0.847
YKVKRRLEFGADD [V8E] | 8.54
YKVKDRLVFGADD [R5D] | 0.762

Single results of other studies — organism: Sarcocystis neurona; read-out: parasite growth; concentration: 10 µM; notes: second screen; baseline: untreated
SMILES | log2 fold change
Br.COc1ccc2c(c1)[C@]13CCCC[C@@H]1[C@H](C2)N(C)CC3 | 0.43
Cl.O=C1[C@H]2CCCC[C@H]2C(=O)N1CCCCN1CCN(c2nsc3ccccc23)CC1 | -3.59

Some of these lines once more (study 2):
Compound | inhibition
O=C1NC(c2ccccn2)Sc2ccccc21 (stereo not drawn) | 6.47%
O=S(=O)(NC1CCC(c2cc(F)ccc2F)(S(=O)(=O)c2ccc(Cl)cc2)CC1)C(F)(F)F (stereo not drawn) | 20%
C[C@@H](c1cccc(C#N)c1)n1cc(Cl)cc(C(N)=O)c1=N | -6.83%
